Measurements pooled from the literature.
Every numbered part comes from another study and shows a few of its results, in no order.

Set 1
Target: Interferon regulatory factor 5, full length, phosphomimetic (IRF5, Homo sapiens, UniProt Q13568-2, residues 1-514, K96S/S451D/S453D/S456D/S462D)
Technique: protein-binding microarray
Molecule type: double-stranded DNA, one strand shown
Sample: in vitro
Concentration: 250 nM
Setting: 60-bp whole probe
Added: salmon DNA 0.4 mg/ml
Baseline: random background probes
Reading: higher = stronger binding
All sequences stand within: GCCTAGCAC … GTCTTGATTCGCTTGACGCTGCTG
| Oligonucleotide | log fluorescence [z-score] |
| --- | --- |
| TTAGGTCTCGCTCTCGGTTAGTGCTAG | 0.452 |
| GACGGTTCCCTTTTTCTGACGTGCTAG | 0.47 |
| TCAAGAATAATTTTTTAGACTGTGCTA | 0.552 |
| GACGATTTCAGTCTCAAGACGTGCTAG | 1.19 |
| GACGACATCAGTATCGAGACGTGCTAG | 1.8 |
| TTAGGTATCGGGTTTCGGTTGGTGCTA | 7.99 |

Set 2
Target: Histone acetyltransferase KAT6A, winged helix 1, GST fusion (KAT6A, Homo sapiens, UniProt Q92794, residues 1-85)
Technique: protein binding microarray
Molecule type: double-stranded DNA, one strand shown
Sample: in vitro
Concentration: not given
Setting: 8-mer, flanks averaged, mean of 2 arrays, mostly near background
Baseline: not given
Reading: higher = stronger binding
Residues (chain): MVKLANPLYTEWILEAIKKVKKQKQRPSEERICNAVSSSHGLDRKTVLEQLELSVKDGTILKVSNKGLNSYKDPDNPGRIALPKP
| Oligonucleotide | E-score |
| --- | --- |
| AACGAAAC | -0.0665 |
| AGTTCTAC | -0.175 |
| AAAGAATG | -0.198 |
| CACGGACC | 0.316 |
| CACGGTCA | 0.0187 |
| CCTTCTCG | -0.148 |
| GCTGTCGA | 0.0496 |

Set 3
Target: Sal-like protein 4, full length isoform B (SALL4, Homo sapiens, UniProt Q9UJQ4-2, residues 1-616)
Technique: universal PBM
Molecule type: double-stranded DNA, one strand shown
Sample: in vitro
Concentration: not given
Setting: 8-mer, flanks averaged, mean of replicates
Reading: higher = stronger binding
| Oligonucleotide | E-score |
| --- | --- |
| CACAGAGG | -0.163 |
| GCTTGGTA | -0.0471 |
| AGATCCCG | -0.138 |
| GTCCTAGA | -0.123 |
| CAATGTCG | 0.00829 |
| GTTACCAA | -0.113 |

Mixed results
| Molecule | target | test | system | conditions | how to read | quantity | value |
| --- | --- | --- | --- | --- | --- | --- | --- |
| PhoQ, residues 284 288 289 292 302 303 ALSMDL | PhoP, residues 12 14 15 18 19 GMGLL (Escherichia coli, UniProt P23836) | Sort-seq, item: YFP reporter | E. coli | PhoQ-PhoP variant library, added: 10 µM Mg2+ | baseline: high Mg2+ state, higher = stronger signaling | fold induction | 1.98 |
